Results of several laboratories.
Every numbered part comes from another study and shows a few of its results, in no order.

Series 1 — method: protein binding microarray; form: double-stranded DNA, one strand shown; matrix: in vitro; tested at: not given; baseline: not given; direction: higher = stronger binding
Target: Histone acetyltransferase KAT6A, winged helix 1, GST fusion (KAT6A, Homo sapiens, UniProt Q92794, residues 1-85)
Notes: 8-mer, flanks averaged, mean of 2 arrays, mostly near background
Construct (chain): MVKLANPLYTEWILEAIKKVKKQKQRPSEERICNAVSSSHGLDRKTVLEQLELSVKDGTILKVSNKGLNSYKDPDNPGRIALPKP
`TGGATCCA` gave an E-score of -0.156.
For `CATCTATC`, the E-score was -0.0203.
The E-score of `CCGTTACC` is reported as 0.145.
`AGGAAGAG` has an E-score of -0.0755.
With `CCGTGTCA` the E-score was 0.255.
With `ACATTGGG` the E-score was -0.201.
`AACTAGAA` gave an E-score of -0.126.
`CTTGGGTA` has an E-score of -0.132.
`CAAGTGTG` has an E-score of -0.124.
`AGGCCTTA` has an E-score of -0.202.
`CATAGGGA` gave an E-score of -0.199.
`GAAGGGAA` gave an E-score of -0.115.
For `AAAATGCT`, the E-score was -0.228.
The E-score of `CGACGTCG` is reported as 0.106.
With `GTATCCAC` the E-score was -0.118.
`CGTCTCTA` has an E-score of -0.0796.
`AGTTTGAG` has an E-score of -0.263.
The E-score of `TATGCGAA` is reported as 0.067.
The E-score of `ATCACTGC` is reported as -0.0131.
`GACAGGAC` has an E-score of -0.0551.
`AGCATTTA` gave an E-score of -0.141.
`AGCAAGAC` has an E-score of -0.027.
`AATGCAGC` has an E-score of -0.172.

Series 2 — method: RNA Bind-n-Seq; form: RNA; matrix: in vitro; tested at: not given; notes: RNA with constant flanks, ends assumed; baseline: input RNA pool; direction: higher = stronger binding
Target: RING finger protein unkempt homolog, zinc fingers 1-6, GST-SBP tag (UNK, Homo sapiens, UniProt Q9C0B0, residues 30-357)
UniProt Q9C0B0, sequence (30-357, looked up): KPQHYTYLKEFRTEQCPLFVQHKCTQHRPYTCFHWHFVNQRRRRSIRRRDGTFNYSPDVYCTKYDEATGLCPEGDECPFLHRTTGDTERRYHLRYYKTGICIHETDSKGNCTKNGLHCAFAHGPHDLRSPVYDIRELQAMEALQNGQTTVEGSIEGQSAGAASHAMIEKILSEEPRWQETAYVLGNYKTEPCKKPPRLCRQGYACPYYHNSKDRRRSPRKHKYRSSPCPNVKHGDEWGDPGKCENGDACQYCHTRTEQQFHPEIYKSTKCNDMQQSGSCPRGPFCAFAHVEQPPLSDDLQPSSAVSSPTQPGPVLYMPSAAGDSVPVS
`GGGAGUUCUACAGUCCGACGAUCUCCUGGUGCGACAGCGUGGGACAAUGUGAACAUGGACUCGAAGACAUGGCCCUUUCUCUGCCGUUGAUUUUUUAAAUGUGCCAUUAUUGUUUUUAAAAAAAAAGGAAAAAAGAAAAGCAACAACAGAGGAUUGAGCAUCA` has a bound/input enrichment of 0.247 ratio.
For `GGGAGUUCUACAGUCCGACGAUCAAAGGCGCAAAGCUCAUCCUGAUCUUUCUGUUCCUAGGAGCCGUUCAGUCCAAUGCAUUGACCGUUAAUUUGACAGAUUCAAAGGGUACUUGCCUUUAUGCAGAAUGGGAGAUGAAUUUCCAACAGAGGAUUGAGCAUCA`, the bound/input enrichment was 0.125 ratio.
`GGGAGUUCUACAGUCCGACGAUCGAGGACCCAAGGUUGAUUCUCAUCACUUUUUUAAAUACUCCGAUUGCGGCCAAUCUGCCAACCGGAUUCUUAGAGCUCACCCCGCUCGUUGGAUUGAUCCGCUGGUGCGUGAAGGCACCCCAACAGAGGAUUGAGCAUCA` has a bound/input enrichment of 0.198 ratio.
For `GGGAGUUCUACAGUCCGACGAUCUUACAUUUAGGGUUUAUCAGAGCUUAAACUACUCUUAAAUUAUUUUCUAAACCUGCCGUACAAUGUAUCAUUGUAACUUCAACCAUUUUAUCCAAAGUAAACACCCAGCAAAAACAUAGUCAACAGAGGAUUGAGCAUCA`, the bound/input enrichment was 1.98 ratio.
`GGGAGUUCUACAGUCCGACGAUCAAUUCACAGAAGCACAAUUUUGCCCUUUGCGAGACAUUGUUGCCUCUAUCUAGUCCUACAAGCCGGGUUUUGCAUACUGUGUUUGCCCCUAGGGUUGUCAGUGCAUCAGAAAUACUUCUACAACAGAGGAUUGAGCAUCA` has a bound/input enrichment of 0.308 ratio.
The bound/input enrichment of `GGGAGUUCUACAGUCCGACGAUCAAGGUUAAGUACCACAUUCUCCUCUAAACCUUGCCUACGACAUGUUUAAUACUUCAUCUACACCGCAGCCCUUCAGAUAAUCACAACCACUUUGCCCCCAAGUUUUCAGGUUAAGUAGCACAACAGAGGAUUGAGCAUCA` is reported as 0.85 ratio.
The bound/input enrichment of `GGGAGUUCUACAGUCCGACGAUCCUAUGCCUAACAGAGCCCCAGUACAACUAUUUUGCAGAAUGGCUGUUACCCUAGAAUUACUACCGCACAUAUUGAGAUAUAGUUGUACUCCCUAGUAGAUAGGAACUGACCCCAACAAUACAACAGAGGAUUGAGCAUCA` is reported as 2.75 ratio.
With `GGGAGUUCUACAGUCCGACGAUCAUCUAGUUAGGGGUAACCAUUAAUUUAUUUUAUAAAGAAAGGAAAUGCUGAAAGUCGUAUCCGUACUGAGUUUAGUUGGAGAAUUUAGAUAAGUAAGUAUCUUUUAGGUAAUUCUAAAAUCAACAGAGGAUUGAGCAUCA` the bound/input enrichment was 21.1 ratio.
`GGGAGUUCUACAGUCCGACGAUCGCAUUUAUCUUUUUUCCUAGUUUUUCUAAUACUAAUGUUAUUUCUUAAAAUUCAGUGAGAUACCGGAUAAAAUAAUGCUUUGAGAAGAAUGUUUAAUAGAAAAUUAAAAUAACUUUUUCUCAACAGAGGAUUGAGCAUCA` gave a bound/input enrichment of 2.33 ratio.
With `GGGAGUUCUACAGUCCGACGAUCGGACAUCUCCAGUCAGAAAGUGGAGCAGUUCCGAAGAGGAAAGACCCCUUAACACAUGCCCGUAAUUCAUUGCCUCGAUCAAAAACUGUCCUGAAAAGUGGCUCCGCAGGGCUCUCCGGUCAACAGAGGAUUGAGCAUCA` the bound/input enrichment was 0.155 ratio.
The bound/input enrichment of `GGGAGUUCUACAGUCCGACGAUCACAAUUUAUGAGAUUAUUGAUAAUUCUCAAGGAUUCUACGUUUGUCCAGUGGAGCCCCAAAACCGAAGCAAGAUGAAUAUUCCAUUCCGCAUUGGCAAUGCCAAAGGAGAUGAUGCUUUACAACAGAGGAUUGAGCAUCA` is reported as 0.17 ratio.

Series 3 — method: RNA Bind-n-Seq; form: RNA; matrix: in vitro; tested at: 365 nM; baseline: no-protein control; direction: higher = stronger binding
Target: RNA binding protein fox-1 homolog 2, RRM domain, GST-SBP tag (RBFOX2, Homo sapiens, UniProt O43251-10, residues 100-194)
Notes: natural RNA segment, single round, ends assumed
Target sequence (chain): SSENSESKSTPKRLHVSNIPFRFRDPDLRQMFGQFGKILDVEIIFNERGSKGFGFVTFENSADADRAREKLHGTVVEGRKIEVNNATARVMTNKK
`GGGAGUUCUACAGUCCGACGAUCUGACCCUGAGCUUCUGCCAGCCUGGAGGACCCGUGCUAAGUGGACCACGCCUUCCCGCUCGGCGGCAAAGGUGCUGACAUCUAUGUGCUAGGCUGCCUCAUCACGCCACUUGGAAUUCUCGGGUGCCAA`: “RBNS enrichment (R)” 0.204.
`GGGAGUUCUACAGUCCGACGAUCUGUGUCCGUGGAACCAGUCCUAGCCGCGUGUGACAGUCUUGCAUUCUGUUUGUCUCGUGGGGGGAGGUGGACAGUCCUGCGGAAAUGUGUCUUGUCUCCAUUUGGAUAAAUGGAAUUCUCGGGUGCCAA`: “RBNS enrichment (R)” 1.73.
`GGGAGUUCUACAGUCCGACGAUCCUCAUCAGCAUUGUCCUCUUUGGAAAUUUUGUCCUCCUGAGGAAAUGCACUUGACGAGUGCUGAAAACUUCUUAAGUGGUUUAAAUUUUGUUUUCAUUGUUUGCAGCGGAUGGAAUUCUCGGGUGCCAA`: “RBNS enrichment (R)” 0.806.
`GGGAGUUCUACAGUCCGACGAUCCCCUUUCUGUGCCAGCCUCGAUCGCCUUGUGCUUUGGUCUCUUUUUCUCCCCCCCGCCUGGAUCCUGCCUCGCGCGGGCCGUCCUGUUGCUGAGACUCGGGGUACCGUUCUGGAAUUCUCGGGUGCCAA` — result for “RBNS enrichment (R)”: 0.558.
`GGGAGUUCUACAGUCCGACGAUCAUUUGGGCUUUAACACACUGGGUACUUUGUGGGUCUCUCUUUCGUCGGUGGCUUAAAGUAACAUCUAUUUCCAUUGAUCCUAGGUUCUUCCUGACUGCUUUCUCCAACUGUGGAAUUCUCGGGUGCCAA`: “RBNS enrichment (R)” 0.351.
Under “RBNS enrichment (R)”, `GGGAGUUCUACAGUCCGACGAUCACGAUAUUUUAAAUAGUUGUGUACAUGAAGCAUGGUUUGUGGUAACUUAUGUGAGGGGUUUUCCCAUUUUUUGUCUUGUUGGUGCUCAAAAAGUUUUGGAUUUUGGAGCAUGGAAUUCUCGGGUGCCAA` is recorded as 34.7.
For `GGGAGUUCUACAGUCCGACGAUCACAGCUAGAUGUCUUUACAAACCUUAAACCAAAGGAGUAAAAAAAACAAUGGUAAGCACUGAAGUAUAAUAAGUAACCUUUGGUACAGCAGGUUUGCUGCAGUGUUUUUUUGGAAUUCUCGGGUGCCAA`, “RBNS enrichment (R)” read 0.431.
`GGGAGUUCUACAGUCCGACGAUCCUGCCGCUACUUCACCUGAGGGCCGUGAGGAGAAGGUGGGCUGCGCCCCACAGAACUGGCAGCAGCUUCUCCACUGUCAUCAAACUGGCCAUGUCCUGGCCCCGUCUCCAUGGAAUUCUCGGGUGCCAA` — result for “RBNS enrichment (R)”: 0.412.
Under “RBNS enrichment (R)”, `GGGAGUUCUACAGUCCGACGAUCGCUCUCAGGUGAACGUGGCCGUCAGCGGGGAAACGUGUGUGUCAGUUGGACCAUGUGGGACCCUGAUGGACCUGAAAGACCAGGAUCGGUCCAGCUCAGAUAUUGAGGGCUGGAAUUCUCGGGUGCCAA` is recorded as 0.66.

Series 4 — method: aptamer microarray, sandwich; form: DNA with 2'F-ANA; matrix: in vitro; tested at: 200 nM; with: Cy3 exosite-II aptamer, 400 nM; direction: higher = stronger binding; sequence: GGTTGGTGTGGTTGG
Target: Prothrombin, mature alpha-thrombin (F2, Homo sapiens, UniProt P00734)
Notes: whole 15-mer aptamer, many near background
Under “mean fluorescence intensity”, `2'F-ANA at 1 3 8 10 13 15` is recorded as 74.6 a.u.
`2'F-ANA at 2 4 5 8 10 11 13 14 15`: “mean fluorescence intensity” 49.1 a.u.
`2'F-ANA at 7 10 11 12 15`: “mean fluorescence intensity” 207 a.u.
`2'F-ANA at 5 8 11 12 13 15` — result for “mean fluorescence intensity”: 96 a.u.
`2'F-ANA at 3 5 6 9 10 13 14` — result for “mean fluorescence intensity”: 50.2 a.u.
`2'F-ANA at 2 4 5 7 11 13 14 15` — result for “mean fluorescence intensity”: 45 a.u.
`2'F-ANA at 1 2 3 5 6 8 10 11 13 14` — result for “mean fluorescence intensity”: 48.1 a.u.
Under “mean fluorescence intensity”, `2'F-ANA at 1 4 5 7 8 9 11 12 14 15` is recorded as 46.7 a.u.
`2'F-ANA at 2 4 5 6 7 8 10 14 15`: “mean fluorescence intensity” 50 a.u.
`2'F-ANA at 2 4 5 6 10 11` — result for “mean fluorescence intensity”: 51.5 a.u.
`2'F-ANA at 1 2 4 9 10 11 12 14`: “mean fluorescence intensity” 54.6 a.u.
For `2'F-ANA at 1 5 7 8 9 10 11 13 15`, “mean fluorescence intensity” read 58.3 a.u.
For `2'F-ANA at 2 5 7 8 10 12 14 15`, “mean fluorescence intensity” read 44.2 a.u.
For `2'F-ANA at 1 5 7 13 15`, “mean fluorescence intensity” read 49.6 a.u.
Under “mean fluorescence intensity”, `2'F-ANA at 2 3 6 8 9 10 11 14 15` is recorded as 223 a.u.
`2'F-ANA at 4 9 10 11 12 13`: “mean fluorescence intensity” 98.4 a.u.
For `2'F-ANA at 1 2 9 13 14 15`, “mean fluorescence intensity” read 50.8 a.u.
`2'F-ANA at 3 7 8 11 15`: “mean fluorescence intensity” 1070 a.u.
For `2'F-ANA at 1 5 6 8 9 13 14 15`, “mean fluorescence intensity” read 48.9 a.u.
For `2'F-ANA at 1 3 4 13 15`, “mean fluorescence intensity” read 153 a.u.
Under “mean fluorescence intensity”, `2'F-ANA at 5 9 10 11 12` is recorded as 51.4 a.u.
For `2'F-ANA at 2 3 5 8 12 13`, “mean fluorescence intensity” read 199 a.u.
`2'F-ANA at 1 3 4 5 6 7 8 10 11 12 13 15` — result for “mean fluorescence intensity”: 52 a.u.
`2'F-ANA at 1 2 6 8 9 10 11 12 13 15` — result for “mean fluorescence intensity”: 87.3 a.u.
`2'F-ANA at 1 2 3 6 7 8 9 10 12 13 14`: “mean fluorescence intensity” 55.8 a.u.
